Measured values of several laboratories.
Each line is one published result; not all experiments were run side by side. ± marks the error that the study gave.

| Structure (SMILES) | test | system | setting | how to read | measurement | result |
| --- | --- | --- | --- | --- | --- | --- |
| O[C@H]1CCCN[C@@H]1CCCn1cnc2c(Cl)c(Cl)ccc21 | – | healthy humans, plasma | oral, 150 mg single dose | – | Vd/F | 2250 L |
| CC1(C)CN(CCCCC(=O)N[C@H](Cc2ccc(O)c(I)c2)C(=O)N[C@H](Cc2ccccc2)C(=O)N[C@H](CCCCNC(=O)CCCCCCC(=O)NCCCC[C@H](NC(=O)N[C@@H](CCC(=O)O)C(=O)O)C(=O)O)C(=O)O)CC[N]2CC(C)(C)[S][Tc]2(=[O])[S]1 (some centres unmarked) [technetium-99m labelled] | radio-HPLC | PBS | 20 h, 25 °C | – | intact fraction | 98% |
| CN(C(=O)n1cnc(-c2ccc[n+]([O-])c2)c1)C1CCCCC1 | – | Wistar rat, pons | oral, 10 mg/kg/day, 4 h, repeated 5 days | – | concentration | 106 ± 37.4 ng/g |
| C=CCNc1c(O)cc2c(O)c1C[C@@H](C)C[C@H](OC)[C@H](O)[C@@H](C)/C=C(\C)[C@H](OC(N)=O)[C@@H](OC)/C=C\C=C(/C)C(=O)N2 | refers to: first-degree AV block | patients with unresectable or metastatic GIST, STS or other tumours | intravenous, 150 mg/m^2 | – | treatment-emergent adverse events | 0% |
| O=C(O)Cc1ccccc1 | – | human CSF | concentration not given, mean | – | CSF concentration | not detected |
| O=C(Nc1ccccc1)C1CCN(C(=O)Oc2cccnc2)CC1 | adverse event reporting | healthy women | oral, 20 mg, 7 days | – | subjects with ear discomfort | 0% |
| CC1(C)C(=O)N(c2ccc(C#N)c(C(F)(F)F)c2)C(=S)N1c1ccc(C(N)=O)c(F)c1 | population PK base model | human | – | – | clearance | 0.289 L/h |
| CN1CC[C@@H](c2c(O)cc(O)c3c(=O)cc(-c4ccc(C(F)(F)F)cc4Cl)oc23)[C@@H]1CO | refers to: Nausea | B-cell malignancies | oral, 150 mg, intermittent dosing | – | patients with adverse event | 0% |
| COc1ccc(Cc2nccc3cc(C4COC4)ccc23)cc1OC | – | C57BL/6 mouse, female | intravenous | – | toxic dose | ≤ 2 mg/kg |
| C[C@]1(CO)Cc2ncn(-c3ccc(C#N)c(Cl)c3)c2C(=O)O1 | – | human | 80 mg multiple doses, fasted | – | subjects with drug-related fatigue | 11.1% |
| O=C(O)CCCOc1ccc(F)cc1-c1cc(-c2ccccc2C(F)(F)F)n(-c2ccccc2)n1 | refers to: Ca | Crl:CD(SD) rats, female, blood | iv, 25 µg/kg, 1 day | – | blood chemistry | 9.5 ± 0.4 mg/dL |
| C[C@]1(O)C[C@@](N)(c2ccc(-c3nc4n(c3-c3ccccc3)COc3ccncc3-4)cc2)C1 | – | human, advanced or metastatic solid tumours | 16 mg once daily, phase I dose escalation | – | patients with Fatigue TEAE | 0% |
| C[C@@H](NC(=O)N1C(=O)[C@H](Cc2ccnc(N)c2)[C@H]1C(=O)O)C1CCCCC1 | – | healthy adult Chinese volunteers | continuous intravenous infusion, 1.0 mg/kg/h, 5-day infusion, CTCAE 5.0 grading | – | drug-related decreased neutrophil | 0% |
| CC(C)(C)c1cc(-n2nc3ccccc3n2)c(O)c(C(C)(C)C)c1 | exposure assessment | human, age 21-60 years | concentration not given, cream, 95th percentile | – | daily dermal uptake, percentile | 5.03 ng/kg body weight/day |
| O=S(=O)(Nc1ccccc1)c1ccc(NC(=S)Nc2ccccc2)cc1 | – | female mice, lung | oral, 20 mg/kg daily 14 days | relative to: body weight | relative organ weight | 1.09% |
| CO[C@H]1C[C@@H]2CC[C@@H](C)[C@@](O)(O2)C(=O)C(=O)N2CCCC[C@H]2C(=O)O[C@H]([C@H](C)C[C@@H]2CC[C@@H](OC(=O)NCCOCCOCCOCCOCCOCCOCCOCCOCCC(=O)N3CCc4cc(Cn5nc(-c6ccc7oc(N)nc7c6)c6c(N)ncnc65)ccc4C3)[C@H](OC)C2)C[C@@H](O)[C@H](C)/C=C(\C)[C@@H](O)[C@@H](OC)C(=O)[C@H](C)C[C@H](C)/C=C/C=C/C=C/1C | phase 1 dose escalation, refers to: vomiting | advanced solid tumour patients | intravenous, 10 mg weekly, grade ≥3 | – | TRAE incidence | 0% |
| C=CC(=O)N1CC[C@H](n2nc(C#Cc3cc(OC)cc(OC)c3)c3c(N)ncnc32)C1 | – | human patients | oral, dose not given, QD regimen, adverse drug reaction, added: ferric citrate hydrate | – | decreased appetite, grade ≥3 | 100% |
| CCN1CCN(Cc2ccc(Nc3ncc(F)c(-c4cc(F)c5nc6n(c5c4)[C@H](C)CCC6)n3)nc2)CC1 | – | advanced solid tumour patients | dose not given, Phase Ia monotherapy | – | Vomiting incidence, grade ≥3 | 4.2% |
| C[C@@H]1OC(=O)NN=C1c1ccc(-c2ccc(F)cc2)c(C(F)(F)F)c1 | phase I trial, refers to: Cough all grades | human patients | 10 mg loading then 0.5 mg daily | – | patients with adverse event | 0% |

| Structure (SMILES) | test | system | setting | how to read | measurement | result |
| --- | --- | --- | --- | --- | --- | --- |
| CCCCCOc1ccc(-c2ccc(-c3ccc(C(=O)N[C@H]4C[C@@H](O)[C@@H](OCC[N+](C)(C)C)NC(=O)[C@@H]5[C@@H](O)[C@@H](C)CN5C(=O)[C@H]([C@@H](C)O)NC(=O)[C@H]([C@H](O)[C@@H](O)c5ccc(O)cc5)NC(=O)[C@@H]5C[C@@H](O)CN5C(=O)[C@H]([C@@H](C)O)NC4=O)cc3)cc2)cc1 | – | adult ICU patients, mITT, serum | dose not given, day 30 | – | alkaline phosphatase | 184 U/L |
| CN1CCN(S(=O)(=O)c2cc([N+](=O)[O-])ccc2N(CCOS(C)(=O)=O)CCOS(C)(=O)=O)CC1 | – | naive NOD/SCID mice, pooled blood | intraperitoneal, 25 mg/kg, week 4 | – | glucose | 4.4 mmol/L |
| CCCC[C@@H]1NC(=O)[C@H](Cc2ccc(O)cc2)NC(=O)[C@@H]2CCCN2C(=O)[C@H](CC(=O)O)NC(=O)[C@H](C)NC(=O)[C@H](Cc2ccccc2)NC(=O)[C@@H]2CSCCC(=O)N3CN(CN(C3)C(=O)CCSC[C@@H](C(N)=O)NC1=O)C(=O)CCSCCC(=O)N[C@@H](CC(C)(C)C)C(=O)N1CCC[C@H]1C(=O)N[C@@H](CCC(=O)O)C(=O)N[C@H](CCCCNC(=O)CCc1cn(CCOCCOCCOCCN(CCOCCOCCOCCC(=O)N[C@H]3CSCCC(=O)N4CN5CN(C4)C(=O)CCSC[C@H](NC(=O)[C@@H](CC(=O)O)NC(=O)[C@H](Cc4cccc6ccccc46)NC(=O)[C@@H]4CCCN4C3=O)C(=O)N[C@@H](CCSC)C(=O)N[C@@H](CCCCNC(=N)N)C(=O)N[C@@H](CC(=O)O)C(=O)N[C@@H](Cc3c[nH]c4ccccc34)C(=O)N[C@@H](CO)C(=O)N[C@@H]([C@@H](C)O)C(=O)N3CCC[C@H]3C(=O)N3C[C@H](O)C[C@H]3C(=O)N[C@@H](Cc3c[nH]c4ccccc34)C(=O)N[C@H](C(N)=O)CSCCC5=O)CCOCCOCCOCCn3cc(CCC(=O)NCCCC[C@H]4NC(=O)[C@H](CCC(=O)O)NC(=O)[C@@H]5CCCN5C(=O)[C@H](CC(C)(C)C)NC(=O)CCSCCC(=O)N5CN6CN(C5)C(=O)CCSC[C@H](NC(=O)[C@H](Cc5ccc(O)cc5)NC(=O)[C@@H]5CCCN5C4=O)C(=O)N[C@@H](Cc4ccccc4)C(=O)N[C@@H](C)C(=O)N[C@@H](CC(=O)O)C(=O)N4CCC[C@H]4C(=O)N[C@@H](Cc4ccc(O)cc4)C(=O)N[C@@H](CCCC)C(=O)N[C@H](C(N)=O)CSCCC6=O)nn3)nn1)C(=O)N1CCC[C@H]1C(=O)N[C@@H](Cc1ccc(O)cc1)C(=O)N2 | – | Sprague-Dawley rat | – | – | unbound clearance | 51 mL/min/kg |
| COc1cc2c(Oc3ccc4[nH]c(C)cc4c3F)ccnc2cc1OCC1(N)CC1 | – | paediatric recurrent refractory sarcoma | 8 mg | – | grade 1 or 2 Hematuria | 0% |
| C[C@H]1CN(C(=O)CC#N)[C@]12CCN(c1ncnc3[nH]ccc13)C2 | – | rat, male | oral, 3 mg/kg, 6 months, repeated dose toxicity | – | exposure multiple over human | 161 /580 |
| Cn1nccc1[C@]1(CNC(=O)c2ccc(F)c(F)c2-c2ccc(C(F)(F)F)cc2)NC(=O)NC1=O | – | dog | intravenous, 0.3 mg/kg | – | dose-normalised AUC | 88 kg·h/L |
| CC(=O)c1c(C)c2cnc(Nc3ccc(C4CCN(CCS(C)(=O)=O)CC4)cn3)nc2n(C2CCCC2)c1=O | – | human, plasma | oral, 75 mg, day 1 single dose | – | Vd | 1490 L |
| Cc1[nH]c(C)c(S(=O)(=O)Nc2ccc(S(F)(F)(F)(F)F)cc2)c1C(=O)N1CCC(F)(F)C1 | – | mice, brain | intraperitoneal, 40 mg/kg | – | AUC(0-inf) | 24300 ng·h/g |
| Cc1cccc(Cn2nc(C3CC3)c3c(NC(=O)c4cnc5cc(OCCN6CCN(C)CC6)ccn45)cccc32)n1 | CTCAE v4.03, refers to: abdominal pain | advanced solid tumour patients | oral, dose not given, all cohorts, added: pembrolizumab IV every 3 weeks | – | all-cause adverse events | 26.3% |
| Cc1ccc2cc(N3CCC4(O)C(=O)c5cc(C)c(C)cc5N=C34)ccc2n1 (centres unmarked) | – | rat | intravenous, 30 mg/kg, GLP safety pharmacology | relative to: vehicle | respiratory rate increase | 27.7 breaths/min |
| Clc1ccc(-c2ccccc2)cc1 | – | female Sprague-Dawley rats, serum | inhalation, 23 µg/rat, 4 h after exposure | – | total protein | 6 ± 0.5 g/dL |
| COc1ccc(-c2c(-c3ccc(C#N)c(F)c3)nc(N3CCC(N)CC3)n(C)c2=O)cc1F | refers to: Pyrexia | human patients | oral, 60 mg, dose expansion | – | serious adverse event incidence | 0% |
| NCCCC[C@@H]1NC(=O)[C@@H](Cc2c[nH]c3ccccc23)NC(=O)[C@H](c2ccccc2)NC(=O)[C@@H]2C[C@@H](OC(=O)NCCN)CN2C(=O)[C@H](Cc2ccccc2)NC(=O)[C@H](Cc2ccc(OCc3ccccc3)cc2)NC1=O | – | healthy volunteers, male | 600 µg twice daily, 1.5 h, post hoc | – | placebo-corrected QTcF change | 10.4 ms |
| Cc1ncnc2c1ccn2[C@@H]1C[C@H](Oc2cc(C(F)F)c(F)c3c2CNCC3)[C@@H](O)[C@H]1O | – | patients | dose not given, grade ≥3 | relative to: patients | Vomiting incidence | 0% |
| CC(O)CN1CCN(CC(=O)[O-])CCN(CC(=O)[O-])CCN(CC(=O)[O-])CC1.[Gd+3] (centres unmarked) | LC-ICP-MS | human plasma | pH 7.4, 37 °C | – | dissociation rate | 0.014 %/day |
| O.O.O.O.O.O.[Cl-].[Cl-].[Co+2] | – | Crl:CD(SD) rat female, blood | oral, 0.74 mg Co/kg/day, 90 days | – | red blood cell count | 8.38 ×10E6/µl |
| COc1ncccc1-c1cnn2ccc(N3CCN(C(=O)OC(C)C)CC3)nc12 | – | rat, CCI mechanical allodynia model, plasma | oral, 1 mg/kg, 240 min | – | drug concentration | 170 nM |
| CCc1ccc(CC/C=C/c2ccc3c(c2)C(=O)CC3)cc1 | – | Sprague-Dawley rat, male, blood | oral, 450 mg/kg/day, 14 days | – | mean platelet volume | 11.5 fL |
| COc1cccc2c1CCCC2CCCN1CCN(C2CCCCC2)CC1 (centres unmarked) | – | CD-1 mouse, male, lung | intraperitoneal, 3 mg/kg | – | half-life | 2.17 h |

A few entries again:
| Structure (SMILES) | test | system | setting | how to read | measurement | result |
| --- | --- | --- | --- | --- | --- | --- |
| Cn1nccc1[C@]1(CNC(=O)c2ccc(F)c(F)c2-c2ccc(C(F)(F)F)cc2)NC(=O)NC1=O | – | dog | intravenous, 0.3 mg/kg | – | dose-normalised AUC | 88 kg·h/L |
| CC(=O)c1c(C)c2cnc(Nc3ccc(C4CCN(CCS(C)(=O)=O)CC4)cn3)nc2n(C2CCCC2)c1=O | – | human, plasma | oral, 75 mg, day 1 single dose | – | Vd | 1490 L |
| Cc1[nH]c(C)c(S(=O)(=O)Nc2ccc(S(F)(F)(F)(F)F)cc2)c1C(=O)N1CCC(F)(F)C1 | – | mice, brain | intraperitoneal, 40 mg/kg | – | AUC(0-inf) | 24300 ng·h/g |
| Cc1cccc(Cn2nc(C3CC3)c3c(NC(=O)c4cnc5cc(OCCN6CCN(C)CC6)ccn45)cccc32)n1 | CTCAE v4.03, refers to: abdominal pain | advanced solid tumour patients | oral, dose not given, all cohorts, added: pembrolizumab IV every 3 weeks | – | all-cause adverse events | 26.3% |
| Cc1ccc2cc(N3CCC4(O)C(=O)c5cc(C)c(C)cc5N=C34)ccc2n1 (centres unmarked) | – | rat | intravenous, 30 mg/kg, GLP safety pharmacology | relative to: vehicle | respiratory rate increase | 27.7 breaths/min |
